Published values from different studies.
Each line is one published result; not all experiments were run side by side. Numbers after ± are the reported error.
APP Aβ42 aggregates: Amyloid-beta precursor protein, Aβ42 aggregates (APP, Homo sapiens, UniProt P05067)
UniProt P05067, sequence (whole entry, looked up): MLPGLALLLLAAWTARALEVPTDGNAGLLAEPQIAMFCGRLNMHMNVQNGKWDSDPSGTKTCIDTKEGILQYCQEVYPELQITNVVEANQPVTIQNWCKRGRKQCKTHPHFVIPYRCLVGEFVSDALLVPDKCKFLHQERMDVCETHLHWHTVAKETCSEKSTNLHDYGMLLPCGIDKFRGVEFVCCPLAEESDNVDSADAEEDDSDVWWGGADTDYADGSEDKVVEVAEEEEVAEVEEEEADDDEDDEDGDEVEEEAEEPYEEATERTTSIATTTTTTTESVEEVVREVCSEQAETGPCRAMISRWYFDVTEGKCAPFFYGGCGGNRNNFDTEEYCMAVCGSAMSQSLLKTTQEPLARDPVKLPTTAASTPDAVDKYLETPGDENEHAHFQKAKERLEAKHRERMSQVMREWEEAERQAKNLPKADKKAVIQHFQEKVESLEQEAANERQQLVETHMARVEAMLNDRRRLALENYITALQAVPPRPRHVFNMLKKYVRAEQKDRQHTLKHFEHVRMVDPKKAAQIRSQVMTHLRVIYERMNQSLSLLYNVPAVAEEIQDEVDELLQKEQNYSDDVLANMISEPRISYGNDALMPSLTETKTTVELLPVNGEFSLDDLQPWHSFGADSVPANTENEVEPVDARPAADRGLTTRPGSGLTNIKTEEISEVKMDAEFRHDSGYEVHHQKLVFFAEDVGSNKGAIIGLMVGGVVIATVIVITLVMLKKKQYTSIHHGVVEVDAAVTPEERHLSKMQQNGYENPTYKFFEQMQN
APP: Amyloid-beta precursor protein (APP, Homo sapiens, UniProt P05067)
APP Aβ40 fibrils: Amyloid-beta precursor protein, Aβ40 fibrils (APP, Homo sapiens, UniProt P05067)

| Structure (SMILES) | target | assay | system | setting | how to read | measurement | result |
| --- | --- | --- | --- | --- | --- | --- | --- |
| COCCOCCOCCOCCOC(=O)/C(C#N)=C/c1ccc2cc(N3CCCCC3)ccc2c1 | APP Aβ42 aggregates | fluorescence | – | added: aggregated Abeta42 5 µM | reference: free compound | emission intensity increase | 8.4 fold |
| CC[C@H](C)[C@H](NC(=O)[C@@H](NC(=O)[C@@H](NC(=O)[C@@H](N)C(C)C)C(C)C)[C@@H](C)CC)C(N)=O | APP | amyloid aggregation, inhibitor, fluorescence | – | 10 µM, 24 h | – | inhibition | 48.2% |
| [123I]c1ccc2nc(-c3ccc(-n4ccnn4)nc3)cn2c1 | Amyloid-beta precursor protein, amyloid-beta (APP, Homo sapiens, UniProt P05067) | SPECT | Alzheimer's disease patients, posterior cingulate | 150 to 240 min | reference: cerebellum | SUVR | 1.4 ± 0.22 |
| CC(C)C[C@@H]1NC(=O)CN(C)C(=O)CCC(=O)NCCCC[C@@H](C(=O)N[C@@H](CCCNC(=N)N)C(N)=O)NC(=O)[C@H](Cc2ccccc2)NC(=O)[C@H](Cc2ccccc2)NC(=O)c2ccccc2NC1=O | APP Aβ40 fibrils | ThT fluorescence | – | 2-fold molar excess, pH 7.4, 37 °C, added: preformed Aβ1-40 fibrils 40 µM | – | amyloid fibril disruption | 71.5% |
| COCCOCCOCCOC(=O)C(C#N)=Cc1ccc(N(C)C)cc1 | Amyloid-beta precursor protein, amyloid-beta aggregates (APP, Homo sapiens, UniProt P05067) | IgG-amyloid beta binding, inhibitor, ELISA | – | added: aggregated amyloid beta | – | maximum inhibition | 81% |
| N#C/C(=C\c1ccc2cc(N3CCCCC3)ccc2c1)C(=O)OCC(O)CO (stereo not shown) | APP Aβ42 aggregates | fluorescence | – | added: aggregated Abeta42 5 µM | – | excitation maximum | 410 nm |
| OC(Cc1cc(-c2ccc(C(O)C(F)(F)F)s2)sc1-c1ccc(-c2sc(-c3ccc(C(O)C(F)(F)F)s3)cc2CC(O)C(F)(F)F)s1)C(F)(F)F (stereo not shown) | Amyloid-beta precursor protein, Aβ40 aggregates (APP, Homo sapiens, UniProt P05067) | fluorescence | – | Aβ aggregated 200 min | reference: tau Kd over Aβ Kd | Kd ratio | 47 |
| COc1cc(-c2nc3ccccc3s2)cc(CN(Cc2ccccn2)Cc2ccccn2)c1O | Amyloid-beta precursor protein, Aβ42 copper-bound (APP, Homo sapiens, UniProt P05067) | H2O2 production by Cu-Aβ42, inhibitor, HRP/Amplex Red | – | concentration not given, added: sodium ascorbate | – | inhibition | > 65% |
| CCCCN(CCCC)c1ccc(C=C(C#N)C(=O)OCCOCCOCCOC)cc1 | APP Aβ42 aggregates | binding, fluorescence spectroscopy | PBS | 4 µM, added: pre-aggregated Aβ(1-42) 5 µM | – | emission maximum | 468 nm |
| CC[C@H](C)[C@@H]1NC(=O)[C@H]([C@@H](C)O)NC(=O)[C@H](Cc2ccc(O)cc2)NC(=O)[C@H](CCCNC(=N)N)NC(=O)[C@@H]2CCCN2C(=O)[C@H]2CCCN2C(=O)[C@H]([C@@H](C)O)NC(=O)[C@H](C(C)C)NC(=O)[C@H](C(C)C)NC(=O)[C@H](CCCCN)NC(=O)[C@H](CO)NC(=O)[C@@H](CCC(N)=O)NC(=O)[C@H](CO)NC(=O)[C@H](Cc2ccc(O)cc2)NC(=O)[C@H](CO)NC(=O)[C@H](Cc2ccc(O)cc2)NC(=O)[C@@H]2CCCN2C(=O)[C@H](CO)NC(=O)[C@H](CC(C)C)NC(=O)[C@H](CC(C)C)NC(=O)[C@H](C)NC(=O)[C@H](C)NC1=O | Amyloid-beta precursor protein, Aβ40 (APP, Homo sapiens, UniProt P05067) | amyloid-beta aggregation, dynamic light scattering | – | 14 µM, 37 °C, added: 140 µM amyloid-beta | reference: amyloid-beta alone, higher = more aggregation | scattered light intensity | ~2 fold |
| COCCOCCOCCOC(=O)/C(C#N)=C/c1ccc2cc(N3CCOCC3)ccc2c1 | APP Aβ42 aggregates | fluorescence | – | added: aggregated Abeta42 5 µM | reference: free compound | emission intensity increase | 5.1 fold |
| CC(C)C[C@@H]1NC(=O)CN(C)C(=O)CCC(=O)NCCCC[C@@H](C(=O)N[C@@H](CCCNC(=N)N)C(N)=O)NC(=O)[C@H](Cc2ccccc2)NC(=O)[C@H](Cc2ccccc2)NC(=O)[C@H](C(C)C)NC1=O | APP Aβ40 fibrils | ThT fluorescence | – | 2-fold molar excess, pH 7.4, 37 °C, added: preformed Aβ1-40 fibrils 40 µM | – | amyloid fibril disruption | 70% |
| CC[C@H](C)[C@H](NC(=O)[C@@H](Cc1ccccc1)NC(=O)[C@@H](N)C(C)C)C(=O)N[C@@H](C)C(N)=O | APP | amyloid aggregation, inhibitor, fluorescence | – | 2 µM, 24 h | – | inhibition | 75.8% |
